Measured values pooled from the literature.
Compare with care: the assays were run in different laboratories. Several values in a cell are separate wells, animals, samples, runs or records. ± marks the error that the study gave.
MAPK8: Mitogen-activated protein kinase 8 (MAPK8, Homo sapiens, UniProt P45983)
Ecdysone receptor: Ecdysone receptor (Aedes albopictus, UniProt Q9U3Y4)
EZH2: Histone-lysine N-methyltransferase EZH2 (EZH2, Homo sapiens, UniProt Q15910)

Structure (SMILES)	target or system	assay	test system	setting	scale	quantity	result
Fc1ccc(Nc2nc(NC3CCCCC3)c3cc(Br)ccc3n2)cc1F	Beta-2 adrenergic receptor (ADRB2, Homo sapiens, UniProt P07550)	β-arrestin2 recruitment, PathHunter and GloSensor	–	–	relative to: GloSensor IC50 over PathHunter IC50	bias factor	903 fold
C=C1CC2(C(=O)OC)C=C(C(=O)OC(C)(C)C)C(=O)C1C2 (stereo not drawn)	MAPK8	D-peptide binding, inhibitor, FP peptide displacement	–	31.25 µM	lower is stronger displacement	fraction bound	0.686
CCCn1ccc2c(N3CCN(CCCCOc4ccc5c(c4)NC(=O)CC5)CC3)cccc21	D(2) dopamine receptor (DRD2, Homo sapiens, UniProt P14416)	Gi/o signalling (cAMP inhibition), agonist, GloSensor cAMP	–	concentration not given	–	activity	inactive
O=C(O)c1cccc(CN2Cc3cccc(n3)CN(Cc3cccc(C(=O)O)n3)Cc3cccc(n3)C2)n1	Albumin (ALB, Bos taurus, UniProt P02769)	binding	HEPES buffer	0.67 mM albumin, 1.4 T	–	r1 relaxivity	17.2 mM⁻¹ s⁻¹
C[C@@H]1C[C@H](Nc2ccccc2)c2cc(F)ccc2N1C(=O)c1ccc(C#N)c(Cl)c1	Ecdysone receptor	ligand binding, inhibitor	intact cells	together with: [3H]ponasterone A	direction not given	pIC50 Z-score	0.68
CCCCCCCCCCCCC/C=C/C=O	Protein canopy homolog 3 (Homo sapiens, UniProt Q9BT09)	competitive isoTOP-ABPP	proteome, soluble, MDA-MB-231	100 µM, 60 min, together with: iodoacetamide probe	relative to: DMSO over compound-treated, higher = stronger cysteine blockade	isoTOP-ABPP competition ratio	1
CSc1cc(C)[nH]c(=O)c1CNC(=O)c1c(C)n(C(C)C2CCC(NC3(C)COC3)CC2)c2ccccc12 (stereo not drawn)	EZH2	binding, TR-FRET	–	–	–	residence time	2760 min
COC(=O)[C@@]1(C)C=C(C(=O)OC(C)(C)C)C(=O)CC1	MAPK8	D-peptide binding, inhibitor, FP peptide displacement	–	3.906 µM	lower is stronger displacement	fraction bound	0.911
CCOC(=O)C(CC)(CCCSCCOCCOCCOCCOCCNc1ccc([N+](=O)[O-])c2nonc12)NC(=O)c1ccc(C2CC2)c(Cc2ccc(F)cc2)n1 (stereo not drawn)	Cannabinoid receptor 2 (Cnr2, Mus musculus, UniProt P47936)	cAMP, agonist	–	–	–	Emax	117%
COC1CN([C@H]2CC[C@H]([C@@]3(C)Oc4c(Cl)cc(C(=O)NCc5c(SC)cc(C)[nH]c5=O)c(C)c4O3)CC2)C1	EZH2	binding	–	basal PRC2 without H3K27me3 peptide	–	residence time	4380 min
Cc1cc(=O)oc2cc(NC(=O)CCCCCCC(=O)NO)ccc12	Histone deacetylase 8 (HDAC8, Homo sapiens, UniProt Q9BY41)	ITC	Tris-HCl buffer	concentration not given, 288 K	–	binding stoichiometry	0.82
N[C@H]1CC[C@H](Nc2nccc(-c3cccnc3Oc3ccc(NC(=O)NC4CC4)c4ccccc34)n2)CC1	Kinase D-interacting substrate of 220 kDa (KIDINS220, Homo sapiens, UniProt Q9ULH0)	kinobead competition pulldown, measured: KIDINS220	HEK293/HCT116 lysate mixture	10 µM, 1 h, 4 °C	lower = stronger competition	log2 LFQ intensity	20.3 and 19 and 17.8 and 17.1
O=C(O)[C@H]1O[C@@H](O[C@H]2[C@H](O)[C@H](O)[C@H](O[C@H]3[C@H](O)[C@H](O)[C@H](O)O[C@@H]3C(=O)O)O[C@H]2C(=O)O)[C@@H](O)[C@@H](O)[C@@H]1O[C@@H]1O[C@@H](C(=O)O)[C@@H](O)[C@H](O)[C@@H]1O	Beta-lactoglobulin (LGB, Bos taurus, UniProt P02754, A134V/G80D)	isothermal titration calorimetry	–	pH 4.00, 37 °C, 50 mM KH2PO4	–	-TΔS	2 kJ/mol
O=C1c2sc(-c3ccc(N4CCC(F)C4)nc3F)nc2CCN1c1cccnc1 (stereo not drawn)	TAR DNA-binding protein 43, aggregated (TARDBP, Homo sapiens, UniProt Q13148)	binding, surface plasmon resonance	brain-derived TDP-43 aggregates	2.34 nM	–	SPR response	0.599 RU
CC[C@H](C)[C@@H]1NC(=O)[C@H](Cc2c[nH]c3ccccc23)NC(=O)[C@H](Cc2ccccc2)N(C)C(=O)[C@H](C(C)C)NC(=O)[C@H](CC(C)C)NC(=O)[C@H](Cc2ccccc2)NC(=O)CSC[C@@H](C(=O)N[C@@H](CC(N)=O)C(N)=O)NC(=O)[C@H](Cc2ccccc2)NC1=O	Stimulator of interferon genes protein (STING1, Homo sapiens, UniProt Q86WV6, H232R)	thermal stability, DSF	–	200 µM	–	ΔTm	3.23 °C
CN(C)c1ccc(-n2cc(COC(=O)[C@@]3(C)C=C(C(=O)OC(C)(C)C)C(=O)CC3)nn2)cc1	MAPK8	D-peptide binding, inhibitor, FP peptide displacement	–	0.7812 µM	lower is stronger displacement	fraction bound	0.948
Nc1ncnc2c1ncn2C1OC(CN(CCCC2CNCc3c2ccc(Cl)c3Cl)CCC(N)C(=O)O)C(O)C1O (mixture of isomers)	Phenylethanolamine N-methyltransferase (PNMT, Homo sapiens, UniProt P11086)	ITC	–	second site, SAH bound	–	ΔG-2	-39.33 ± 0.126 kJ/mol
CCn1cc(-c2cccc(C(F)(F)F)c2)c2sc(C(=N)NC3CCS(=O)(=O)CC3)cc2c1=O	Bromodomain-containing protein 3, BD1 (BRD3, Homo sapiens, UniProt Q15059)	–	–	–	–	ΔTm	4.5 °C
Cc1cn(CC(=O)N(CCNC(=O)CN(CCNC(=O)CN(CCNC(=O)CN(CCNC(=O)CN(CCNC(=O)CN(CCNC(=O)CN(CCNC(=O)CN(CCN)C(=O)Cn2cnc3c(=O)[nH]c(N)nc32)C(=O)Cn2cnc3c(N)ncnc32)C(=O)Cn2cc(C)c(=O)[nH]c2=O)C(=O)Cn2cnc3c(=O)[nH]c(N)nc32)C(=O)Cn2cc(C)c(=O)[nH]c2=O)C(=O)Cn2cnc3c(=O)[nH]c(N)nc32)C(=O)Cn2cnc3c(N)ncnc32)CC(=O)NCCN(CC(=O)NCCOCCOCC(N)=O)C(=O)Cn2cnc3c(N)ncnc32)c(=O)[nH]c1=O	complementary RNA	duplex formation, UV melting curve fit	PBS	1 µM, 298 K	–	ΔG	-51.88 ± 0.418 kJ/mol
COc1ccccc1-c1ccncc1C(=O)Nc1nnc(OCc2ccc(Cl)cc2)s1	Bifunctional 3'-5' exonuclease/ATP-dependent helicase WRN, residues 500-946 (WRN, Homo sapiens, UniProt Q14191)	ATPase activity, ADP-Glo	–	0.03 µM	relative to: 0 µM cpd	remaining activity	106%
CC(C)[C@@H]1NC(=O)[C@H](Cc2ccccc2)NC(=O)CSC[C@@H](C(N)=O)NC(=O)[C@H](CCC(=O)O)NC(=O)[C@H](CO)NC(=O)[C@H](Cc2c[nH]c3cccc(Cl)c23)NC(=O)[C@H](C2CCCCC2)NC(=O)[C@H](C(C)C)NC(=O)[C@H](Cc2ccc(O)cc2)NC(=O)[C@H](CC(=O)O)NC(=O)[C@H](Cc2c[nH]c3ccccc23)NC(=O)[C@H](Cc2ccc(N)nc2)NC(=O)[C@H](Cc2c[nH]c3ccc(Cl)cc23)NC(=O)[C@H](CCC(=O)O)NC1=O	Interleukin-1 receptor-like 2 (IL1RL2, Homo sapiens, UniProt Q9HB29)	reporter gene (SEAP), inhibitor, HEK-Blue IL-36R reporter	HEK-Blue IL-36R cells	0.046 µM, 6 h, together with: IL-36γ 100 ng/mL	–	remaining activity	103%
O=C(c1ccccc1Cl)N1CCN(CC(OCc2ccc3ccccc3c2)c2ccc(Cl)cc2Cl)CC1 (stereo not drawn)	Serine/threonine-protein kinase ULK1 (ULK1, Homo sapiens, UniProt O75385)	enzyme activity, inhibitor, ADP detection	–	0.1 µM	–	activity vs control	102%
CCCCCCCC/C=C\CCCCCCCC(=O)OCC(O)COP(=O)(O)O (stereo not drawn)	Lysophosphatidic acid receptor 1 (LPAR1, Homo sapiens, UniProt Q92633, W271F)	Gi activation, agonist, NanoBiT G-protein dissociation	HEK293T	W271F mutant, unit not given	relative to: wild type	change in Emax	0.952
CC(C)Oc1cc(Cl)ccc1CNc1cc(-c2ccccc2)nc2ncnn12	G-protein coupled receptor 3 (GPR3, Homo sapiens, UniProt P46089, L128A)	agonist, cAMP GloSensor	–	L128A mutant	relative to: wild type	potency improvement	~6 fold
C[Si](C)(C)C[C@H](CN)CC(=O)O	Galanin receptor type 1 (GALR1, Homo sapiens, UniProt P47211)	enzyme activity, inhibitor	–	250 µM	–	inhibition	0%
O=C(NS(=O)(=O)c1cccs1)c1cc2ccccc2n1Cc1ccc(Br)c2ccccc12	Solute carrier family 22 member 12 (SLC22A12, Homo sapiens, UniProt Q96S37)	binding, surface plasmon resonance	–	–	–	dissociation rate constant	0.0092 s⁻¹
Cc1ncsc1-c1ccc(C(C)NC(=O)C2CC(O)CN2C(=O)C(NC(=O)CCCCCCCCCCN2CCCC(Nc3ncc(Cl)c(Nc4ccccc4S(=O)(=O)C(C)C)n3)C2)C(C)(C)C)cc1 (stereo not drawn)	22Rv1	RNA-seq, measured: PFKFB3 mRNA	–	concentration not given	relative to: DMSO	log2 fold change	-1.37
CCCCCC(O)/C=C/C=O (stereo not drawn)	TBC1 domain family member 13 (TBC1D13, Homo sapiens, UniProt Q9NVG8)	competitive isoTOP-ABPP	Ramos soluble proteome	100 µM, 60 min, together with: iodoacetamide probe	relative to: DMSO over compound-treated, higher = stronger cysteine blockade	isoTOP-ABPP competition ratio	1.3
C[C@@H]1C[C@H](Nc2ccccc2)c2cc(F)ccc2N1C(=O)c1ccc(C(F)(F)F)cc1	Ecdysone receptor	ligand binding, inhibitor	intact cells	together with: [3H]ponasterone A	direction not given	pIC50 Z-score	0.03
CN(Cc1cc(C2CC2)on1)C(=O)c1cccc(-c2ccc3c(c2)CCO3)c1	acetoacetyl-CoA synthetase (Cryptococcus neoformans)	enzyme activity, inhibitor	–	125 µM	–	remaining activity	85.2%

Some of these lines once more:
Structure (SMILES)	target or system	assay	test system	setting	scale	quantity	result
CC(C)[C@@H]1NC(=O)[C@H](Cc2ccccc2)NC(=O)CSC[C@@H](C(N)=O)NC(=O)[C@H](CCC(=O)O)NC(=O)[C@H](CO)NC(=O)[C@H](Cc2c[nH]c3cccc(Cl)c23)NC(=O)[C@H](C2CCCCC2)NC(=O)[C@H](C(C)C)NC(=O)[C@H](Cc2ccc(O)cc2)NC(=O)[C@H](CC(=O)O)NC(=O)[C@H](Cc2c[nH]c3ccccc23)NC(=O)[C@H](Cc2ccc(N)nc2)NC(=O)[C@H](Cc2c[nH]c3ccc(Cl)cc23)NC(=O)[C@H](CCC(=O)O)NC1=O	Interleukin-1 receptor-like 2 (IL1RL2, Homo sapiens, UniProt Q9HB29)	reporter gene (SEAP), inhibitor, HEK-Blue IL-36R reporter	HEK-Blue IL-36R cells	0.046 µM, 6 h, together with: IL-36γ 100 ng/mL	–	remaining activity	103%
CC[C@H](C)[C@@H]1NC(=O)[C@H](Cc2c[nH]c3ccccc23)NC(=O)[C@H](Cc2ccccc2)N(C)C(=O)[C@H](C(C)C)NC(=O)[C@H](CC(C)C)NC(=O)[C@H](Cc2ccccc2)NC(=O)CSC[C@@H](C(=O)N[C@@H](CC(N)=O)C(N)=O)NC(=O)[C@H](Cc2ccccc2)NC1=O	Stimulator of interferon genes protein (STING1, Homo sapiens, UniProt Q86WV6, H232R)	thermal stability, DSF	–	200 µM	–	ΔTm	3.23 °C
CSc1cc(C)[nH]c(=O)c1CNC(=O)c1c(C)n(C(C)C2CCC(NC3(C)COC3)CC2)c2ccccc12 (stereo not drawn)	EZH2	binding, TR-FRET	–	–	–	residence time	2760 min
Fc1ccc(Nc2nc(NC3CCCCC3)c3cc(Br)ccc3n2)cc1F	Beta-2 adrenergic receptor (ADRB2, Homo sapiens, UniProt P07550)	β-arrestin2 recruitment, PathHunter and GloSensor	–	–	relative to: GloSensor IC50 over PathHunter IC50	bias factor	903 fold
